# Assay results collected from several papers.
# Parts stem from different laboratories: compare values within a part only. Positions count from the first letter of the parent shown.

# Sample 1 — method: RNA Bind-n-Seq; form: RNA; sample: in vitro; tested at: not given; baseline: input RNA pool; reading: higher = stronger binding
# Target: RING finger protein unkempt homolog, zinc fingers 1-6, GST-SBP tag (UNK, Homo sapiens, UniProt Q9C0B0, residues 30-357)
# Setting: RNA with constant flanks, human-mouse chimeric sites, ends assumed
# Construct (chain): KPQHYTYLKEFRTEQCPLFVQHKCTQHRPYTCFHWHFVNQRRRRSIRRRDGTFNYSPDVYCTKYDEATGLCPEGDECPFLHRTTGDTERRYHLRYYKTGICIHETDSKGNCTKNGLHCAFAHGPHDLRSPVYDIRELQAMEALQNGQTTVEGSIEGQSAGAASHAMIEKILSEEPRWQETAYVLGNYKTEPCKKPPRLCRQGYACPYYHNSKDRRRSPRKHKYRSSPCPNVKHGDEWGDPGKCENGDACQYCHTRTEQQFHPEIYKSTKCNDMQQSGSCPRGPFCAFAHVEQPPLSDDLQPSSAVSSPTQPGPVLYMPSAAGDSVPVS
Strand,bound/input enrichment
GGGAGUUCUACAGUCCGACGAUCUUUCUACUGCAGCAAACGAUGCUAAGAAUUAAGGAUCCUAAGAAGUCACUGGAUUUUUAUACGAGGGUUCUUGGACUGACCCUCCUGCAGAAGCUUGAUUUUCCCAUUAUGAAGUUCUCGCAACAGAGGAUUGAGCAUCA,0.24 ratio
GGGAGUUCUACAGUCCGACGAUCACCAUUUCUGAAUACACGGCUUUGUGUGUAGUUCACUUACGGUAUUAAAUUAUUAUUCUGCUUAGCUUAUAAUAAGGAUAAUUGCAUGAUUUAAGUAUACUGAAUGUUACUCUGAAACUUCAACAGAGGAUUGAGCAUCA,0.419 ratio
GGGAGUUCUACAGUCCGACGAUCCUGGCACUCUAUCAGAUAUAUUAAUUUUUUAAUGUAGAUGUAAUUUUAAAAAUGAAUGGCUACUUUACGUGAUAGAUUAGGGUUUUACUACAUAUGUGUACAUAUGUAUAUAUAUAUAUACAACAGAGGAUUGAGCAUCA,8.92 ratio
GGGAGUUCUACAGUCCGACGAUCUCUGGCCACACUCGUGUGUAUGGUGUUUGCUUUGUGGACACUUCACUGGGCAAGUUUUUCAUAGGUCAGUUUUCGGAUGACCGCCACUGUUCCAGAUUUAGGACGCUAGUGGCUCACUAUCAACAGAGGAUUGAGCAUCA,0.259 ratio
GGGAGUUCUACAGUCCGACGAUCCGCAGAAGGUUAAAGGGUGAGAGUGGGGUGGAAGACUGUGUCAUGGCUCUGGAGACACUGUUCAGUGUCCUGCUUUCUCUGUGCAGACUGAUGGCCCCUUACACGCCCUUUCUGACUGAGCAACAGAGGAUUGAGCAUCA,0.0482 ratio
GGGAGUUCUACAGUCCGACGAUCGCGGCAGAAUCAUGGUGGACAUAAUGCAGCUCCCCAAAGCGCGCGUCAACGCCAGCAUGUUACCACAGUAUAUCGACCGGCCCGUGUGCUUCGUAGGGAAGCUGGAAAAGAUUCAUCCCACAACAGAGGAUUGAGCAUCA,0.149 ratio
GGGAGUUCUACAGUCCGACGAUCAAAGUGGACUAUGGCGAGUACAUGGAUAAAAACAAUGUGAGGCGGCAAGCAACAACAAUCAUAGCUGAUAACAUUAUAUUUCUGAGUGACCAGACGAAAGAAAAGGCAUAGAACGGAUGACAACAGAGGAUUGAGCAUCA,2.02 ratio
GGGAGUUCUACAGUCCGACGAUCUUUCUACUGCAGCAGACGAUGCUAAGAAUUAAGGAUCCUAAGAAGUCCCUGGAUUUUUAUACGAGGGUUCUUGGACUGACCCUCCUGCAGAAGCUUGACUUCCCUGCUAUGAAGUUUUCGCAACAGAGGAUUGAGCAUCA,0.287 ratio
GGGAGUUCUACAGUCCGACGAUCUCAUUUUUCUCUUUUCUUUCUUUCCUUUAGGAAAAGCCUAAAGAUUAGGUUGUAAGAAAAAUAGAAGCCAUGUUUCGAAGACCUGUGUUACAGGUACUUCGUCAGUUUGUAAGACAUGAGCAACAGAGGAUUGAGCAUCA,0.45 ratio
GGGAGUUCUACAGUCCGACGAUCCUUAAUGUUAAUAUUUUUAAAGGAAGCAAGCUAAAAUUUUGCUUUCUGGUACAACACGCAUUAAUAAAAGGUUAAGUUUUGUUUUCCACUGAAGUACUAUUUAACAUCUCAGAAAAAAACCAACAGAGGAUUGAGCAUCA,0.21 ratio
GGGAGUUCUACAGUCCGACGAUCUCAGGAACUCAGACAAACAUGAAUGUAAAUGAAGUCAUUAGCAACAGAGCAAUUGAAAUGUUAGGAGGUGAACUUGGCAGCAAGAAGCCUGUGCACCCCAAUGAUCAUGUUAAUAAAAGCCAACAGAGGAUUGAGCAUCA,0.226 ratio

# Sample 2 — method: RNA Bind-n-Seq; form: RNA; sample: in vitro; tested at: 365 nM; baseline: no-protein control; reading: higher = stronger binding
# Target: RNA binding protein fox-1 homolog 2, RRM domain, GST-SBP tag (RBFOX2, Homo sapiens, UniProt O43251-10, residues 100-194)
# Setting: natural RNA segment, single round, ends assumed
# Construct (chain): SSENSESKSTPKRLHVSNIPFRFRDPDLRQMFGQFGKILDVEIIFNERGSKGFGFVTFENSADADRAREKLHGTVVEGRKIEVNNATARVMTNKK
Strand,RBNS enrichment (R)
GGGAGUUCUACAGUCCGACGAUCCUACCUCUGAGAAAGAGGAAAAUGUAAUUAUUCACAGAGUUUCUCAAAAUGGCAUCUUUCCUCCCAAACUGGGAGCCAAAUUCUGCAGAAAUCAUGGACAGUAAAUGGUGUGGAAUUCUCGGGUGCCAA,0.431
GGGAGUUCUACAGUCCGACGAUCGUUUUGUAAUGCCCGCCCCUUGCCUCGAUAUUGCCAGUUUCUUGUGCAAUAAACAAUCAGCAGCUGUGGGUGGUGUUGUUGUGGAUGUUUACAAAGCCACAGUCCUCCAGUGGAAUUCUCGGGUGCCAA,1.25
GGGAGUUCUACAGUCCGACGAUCAUAAAGUGUGUAGCCAGAAGAGUACUUUUUUUUUUGUAACCACUGUCUUGAUGGCAAAAUAAUUAUGGUAAAAAACAAGUCUCGUGUUUAUUAUUCCUUAAGAACUCUGUUGGAAUUCUCGGGUGCCAA,0.294
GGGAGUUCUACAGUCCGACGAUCAUAUAUUUUAAAUAUACUGUGUUUGCACACACUGGUAGCUAUGUGUUUGCACACAUUGGUAGACUGUUAUCAUUUGUGGUGGGAACCCAUGUAAAUAAGUAGACUGUAAAUGGAAUUCUCGGGUGCCAA,0.772
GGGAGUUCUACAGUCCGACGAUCAACAAUCUCUUGUGACUAAUGUCACUCAAAGCAUCUUGUAAAUCCUAGGGCUUCCUGGAAGUUAGUUGCCAAAGUCAUGCAAGCAUCACCUGUCAUUCUUGUGUUGGAGUUGGAAUUCUCGGGUGCCAA,0.515
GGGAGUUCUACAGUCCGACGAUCAUGAAUGGGUUUCUAUAUAUGGGUCUGUGUGAGUGUAUGUGUGUGUGUGAUUUUUUUUUUAAAUUUAUGUUGCGGAAAGGUAACCACAAAGUUAUGAUGAACUGCAAACAUGGAAUUCUCGGGUGCCAA,0.733
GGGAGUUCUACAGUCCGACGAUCCCUGCCCCACACAGGUCACGCUGGCAAGGCGAUGACCAGUUUCCGAAACGCUGGAUCCCCAAGGGUACAGUGUGGCCCAGUCCUCCCCCACCUCCAUGGUGGCCCAGGCUUGGAAUUCUCGGGUGCCAA,0.204
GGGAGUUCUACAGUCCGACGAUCUCUUCUCUCCAAAGUAAAAUUAGAUUAUUUAUAACUUCGAUCGCCUCGGCUAGGUUUCCAAGUCACUGAUUUCUGCUGAAGAUUUUACUACGUUGUUGCACAAUUUUAAGUGGAAUUCUCGGGUGCCAA,0.491
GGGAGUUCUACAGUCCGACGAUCCUCGUCUCAGAGGCCAGCAAGCUGGGGCCUGUCCGCCACGGUGCCCUGUGCACCUUUGGGCUGCCCUGGCCCCCACUCUCCCGGGCCGCCCACCACAGGCUCUUAAUGGGUGGAAUUCUCGGGUGCCAA,0.208
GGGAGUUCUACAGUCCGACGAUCACCAGUGACAAUCUUAUGAAUAUAAUGAAUAAGUAAGCAUAUAGUAGGGUGAUAGAAUACAGAUAGUAGAAACAAAGAGAGGACAGCAAACCUUUUCAGCACUUCUCUCAUGGAAUUCUCGGGUGCCAA,0.308
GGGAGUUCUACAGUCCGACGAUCCCGGCCCGGGCGUCCUCCGCCAGCUCCUGUGACCAGCGCGUCUCCCGAUGCUCUCCGCCGUGUUCGUGUCCCCAGGCGCCCUCGCUGCAGCCCCGCCCCCGUGGGUCUCUUGGAAUUCUCGGGUGCCAA,0.383
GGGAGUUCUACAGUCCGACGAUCCAUGGACCUGUCUCCAGAGAGAGGAGCCUGAAGUUCGUGGGGCGGGACAGCGUCGGCCUGAUUUCCCGUAAAGGUGUGCAGCCUGAGAGACGGGAAGAGGAGGCCUCUGGUGGAAUUCUCGGGUGCCAA,0.465

# Sample 3 — target: CCNB1, cyclin fold, Cln2 fusion (human); method: yeast growth competition, sequencing; sample: yeast; setting: weak parent motif; baseline: not given; reading: higher = stronger binding
# Starting sequence: CDC25A docking peptide (human); PPHRRRLLFACSP
Substitution,normalised enrichment score
PPHRHRLLFACSP [R5H],0.712
PPHRCRLLFACSP [R5C],0.321
PPHNRRLLFACSP [R4N],0.616
PPHRRRLLFASSP [C11S],0.37
PPHRRRLLFACSF [P13F],0.449
PPHRRRLLFARSP [C11R],-0.254
PPHRRRLLFACEP [S12E],1.02
PDHRRRLLFACSP [P2D],0.15
PPHRRRLLFAASP [C11A],1.29
PPHRRRLLFICSP [A10I],0.0599
PPHRRRLLFAESP [C11E],0.569
PPHRRRLSFACSP [L8S],0.449
PPHRRRLLHACSP [F9H],0.251
PPHRRTLLFACSP [R6T],0.569
PPTRRRLLFACSP [H3T],0.698
PPHRRRLLFACAP [S12A],0.165
PVHRRRLLFACSP [P2V],0.535
APHRRRLLFACSP [P1A],0.315
PPHRRVLLFACSP [R6V],0.345
PKHRRRLLFACSP [P2K],0.781
NPHRRRLLFACSP [P1N],0.674
PPDRRRLLFACSP [H3D],1.24
PPHRRRLLFACKP [S12K],0.497
PPHRRRLLGACSP [F9G],1.77
PFHRRRLLFACSP [P2F],0.349

# Sample 4 — method: DHFR PCA, deep sequencing; sample: yeast; together with: (+)-ABA 0.032 µM; baseline: wild-type fitted maximum; reading: higher = stronger binding
# Target: ABI1, truncated, D143A, DHFR fusion (Arabidopsis thaliana)
# Setting: methotrexate growth selection, single substitutions
# Starting sequence: PYL1, truncated, DHFR fusion (Arabidopsis thaliana); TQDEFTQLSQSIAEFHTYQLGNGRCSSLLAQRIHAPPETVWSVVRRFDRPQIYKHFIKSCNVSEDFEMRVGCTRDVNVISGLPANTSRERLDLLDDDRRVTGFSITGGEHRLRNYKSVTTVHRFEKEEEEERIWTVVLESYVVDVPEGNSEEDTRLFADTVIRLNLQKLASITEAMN
Substitution,relative binding score
Y141V,-0.451%
F47N,2.24%
F5W,32.2%
L166D,3.97%
N61Q,49.8%
D65W,0.698%
D65P,41.1%
E125K,30.5%
I12Y,-4.54%
S27M,2.27%
D75M,24.8%
E174T,0.546%

# Some of these lines once more (sample 2):
Strand,RBNS enrichment (R)
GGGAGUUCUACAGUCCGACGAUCCCGGCCCGGGCGUCCUCCGCCAGCUCCUGUGACCAGCGCGUCUCCCGAUGCUCUCCGCCGUGUUCGUGUCCCCAGGCGCCCUCGCUGCAGCCCCGCCCCCGUGGGUCUCUUGGAAUUCUCGGGUGCCAA,0.383
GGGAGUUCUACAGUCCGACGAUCUCUUCUCUCCAAAGUAAAAUUAGAUUAUUUAUAACUUCGAUCGCCUCGGCUAGGUUUCCAAGUCACUGAUUUCUGCUGAAGAUUUUACUACGUUGUUGCACAAUUUUAAGUGGAAUUCUCGGGUGCCAA,0.491
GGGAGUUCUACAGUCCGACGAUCAACAAUCUCUUGUGACUAAUGUCACUCAAAGCAUCUUGUAAAUCCUAGGGCUUCCUGGAAGUUAGUUGCCAAAGUCAUGCAAGCAUCACCUGUCAUUCUUGUGUUGGAGUUGGAAUUCUCGGGUGCCAA,0.515
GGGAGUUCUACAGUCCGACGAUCCCUGCCCCACACAGGUCACGCUGGCAAGGCGAUGACCAGUUUCCGAAACGCUGGAUCCCCAAGGGUACAGUGUGGCCCAGUCCUCCCCCACCUCCAUGGUGGCCCAGGCUUGGAAUUCUCGGGUGCCAA,0.204
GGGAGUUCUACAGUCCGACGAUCAUGAAUGGGUUUCUAUAUAUGGGUCUGUGUGAGUGUAUGUGUGUGUGUGAUUUUUUUUUUAAAUUUAUGUUGCGGAAAGGUAACCACAAAGUUAUGAUGAACUGCAAACAUGGAAUUCUCGGGUGCCAA,0.733
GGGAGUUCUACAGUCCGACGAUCCUACCUCUGAGAAAGAGGAAAAUGUAAUUAUUCACAGAGUUUCUCAAAAUGGCAUCUUUCCUCCCAAACUGGGAGCCAAAUUCUGCAGAAAUCAUGGACAGUAAAUGGUGUGGAAUUCUCGGGUGCCAA,0.431
